# Results collected from several papers.
# Compare with care: the assays were run in different laboratories. ± gives the spread as reported.
# Cell line: RAW264.7
SMILES,test,conditions,scale,quantity,value
CC#CCC#CCCCC(OC(C)=O)C(=O)NCCCOc1ccc2c(-c3ccccc3C(=O)OCC)c3ccc(=O)cc-3oc2c1 (stereo not shown),cell retention,after four washes,,decrease of intensity,~4 fold
CC(C)(O)C1CC[C@]2(C)C(CC=C3[C@@H]4CC(C)(C)[C@@H](O)C[C@]4(C(=O)O)CC[C@]32C)[C@@]1(C)CCC(=O)O (stereo partly shown),"NO release, inhibitor, Griess",LPS-stimulated,,IC50,> 100 µM
CC#CC#C/C=C1/O[C@@]2(CC[C@@H](OC(C)=O)CO2)[C@H](O)[C@H]1OC(C)=O,"NO release, inhibitor, Griess",LPS-stimulated,,IC50,19.5 µM
CC1C(O)CC2(CO)CCC3(C)C(=CCC4C(C)(CCC(=O)O)C(C(C)(O)CO)CCC43C)C2C1C (stereo not shown),"NO production, Griess","24 h, pre-treatment before HMGB1, with: HMGB1 0.5 µg/mL",,IC50,> 100 µM
C=Cc1c(C)c2cc3nc(c(CC(=O)[O-])c4[n-]c(cc5nc(cc1[n-]2)C(C)=C5CC)c(C)c4C(=O)[O-])C(CCC(=O)[O-])C3C.[Cu+2].[Na+].[Na+].[Na+] (stereo not shown),,concentration not given,relative to: untreated,colony formation,increased
O=C(COC(=O)c1ccccc1Nc1cccc(C(F)(F)F)c1)Nc1cccc(C(F)(F)F)c1,ELISA,"concentration not given, 24 h, with: LPS 100 ng/mL",,PGE2 level,171 ± 5.61 pg/mL
CC#CC#C/C=C1/O[C@@]2(CCCCO2)[C@@H](O)[C@@H]1OC(C)=O,Western blot,"concentration not given, with: LPS",,COX-2 protein level,decreased
CC1(C)C[C@H]2C3=CCC4[C@@](C)(CCC(=O)O)C([C@@](C)(O)CO)CC[C@@]4(C)[C@]3(C)CC[C@@]2(CO)C[C@@H]1O (stereo partly shown),"NO release, inhibitor, Griess",LPS-stimulated,,IC50,> 100 µM
CC#CC#C/C=C1/O[C@@]2(CC[C@@H](O)CO2)[C@H](O)[C@H]1OC(C)=O,"NO release, inhibitor, Griess",LPS-stimulated,,IC50,> 50 µM
C=CCOCO[C@H](C(=O)NC[C@@H]1C[C@@H](OC)C(C)(C)[C@@H](C[C@@H](COC)OC)O1)[C@@]1(OC)CC(=C)[C@@H](C)[C@@H](C)O1,"cell viability, sulforhodamine B","48 h, 37 °C, without H2O2",,IC50,1.44 ± 0.483 µM

# A few entries again:
SMILES,test,conditions,scale,quantity,value
CC#CCC#CCCCC(OC(C)=O)C(=O)NCCCOc1ccc2c(-c3ccccc3C(=O)OCC)c3ccc(=O)cc-3oc2c1 (stereo not shown),cell retention,after four washes,,decrease of intensity,~4 fold
